Assay results gathered from unrelated publications.
Each numbered part is a random draw from the data of one study; scales do not carry over between parts. Positions count from the first letter of the parent shown.

Block 1 — target: ATF2, bZIP domain (human); technique: DHFR protein complementation; medium: yeast; baseline: wild-type JUN-FOS pair; direction: higher = stronger binding
Notes: single substitutions, most at no-binding floor
Starting sequence: JUN, bZIP domain (human); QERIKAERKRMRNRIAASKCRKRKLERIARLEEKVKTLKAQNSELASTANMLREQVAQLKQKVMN; partner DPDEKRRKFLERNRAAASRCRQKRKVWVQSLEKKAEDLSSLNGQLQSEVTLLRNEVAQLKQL
`S43F` has a binding fitness of -1.41 natural log.
`K36M` gave a binding fitness of -1.36 natural log.
`L45H` gave a binding fitness of -1.56 natural log.
`I28G` gave a binding fitness of -1.45 natural log.
For `T37L`, the binding fitness was -1.26 natural log.
`A46E` has a binding fitness of -1.39 natural log.
The binding fitness of `L31H` is reported as -1.36 natural log.
The binding fitness of `R30Q` is reported as -1.2 natural log.
The binding fitness of `Q41N` is reported as -1.46 natural log.
With `T37H` the binding fitness was -1.35 natural log.
`E33N` has a binding fitness of -1.47 natural log.
`A29S` has a binding fitness of -1.33 natural log.

Block 2 — technique: RNA Bind-n-Seq; form: RNA; medium: in vitro; tested at: 200 nM; notes: whole 134-nt RNA, ends assumed; together with: 150 mM LiCl; baseline: input library; direction: higher = stronger binding; library: 7-deaza-guanosine replaces G
Target: Ras GTPase-activating protein-binding protein 1, full length (G3BP1, Homo sapiens, UniProt Q13283)
Sequence of UniProt Q13283 (whole entry, looked up): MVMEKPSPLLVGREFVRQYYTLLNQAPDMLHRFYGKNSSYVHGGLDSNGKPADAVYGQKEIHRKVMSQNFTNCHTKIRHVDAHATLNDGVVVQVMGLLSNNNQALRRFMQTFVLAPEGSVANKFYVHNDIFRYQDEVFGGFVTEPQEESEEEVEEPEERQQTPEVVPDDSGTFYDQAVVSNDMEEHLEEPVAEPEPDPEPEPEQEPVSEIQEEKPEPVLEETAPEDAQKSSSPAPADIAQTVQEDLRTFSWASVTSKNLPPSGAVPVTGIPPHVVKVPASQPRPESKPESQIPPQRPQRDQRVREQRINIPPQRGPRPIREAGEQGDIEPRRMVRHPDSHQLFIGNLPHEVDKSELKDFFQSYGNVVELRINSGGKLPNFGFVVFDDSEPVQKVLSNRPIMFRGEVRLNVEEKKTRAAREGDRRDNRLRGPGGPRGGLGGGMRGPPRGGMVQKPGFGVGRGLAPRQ
With `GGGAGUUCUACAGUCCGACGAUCUGUGCUACACAUCGUAUGUACCGAAUCGGCCCCCCCGGGGCCCCCCCGGGGCCCCCCCGGGGAAAGUAUUAUGUUACGCCGUUCGGAUCUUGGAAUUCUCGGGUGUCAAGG` the log2 enrichment was -0.898.
The log2 enrichment of `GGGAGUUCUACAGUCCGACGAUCCAAGUCCUGUGCUACACAUCGUAUGUACCGAAUCGGGAAAGGGUUUGGGAAAGGGAAAGUAUUAUGUUACGCCGUUCGGAUCUGCACUUCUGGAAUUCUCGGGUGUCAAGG` is reported as -0.397.
`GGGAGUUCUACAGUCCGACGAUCCUCAAGUCCUGUGCUACACAUCGUAUGUACCGAAUCGGGAGGGUGGGUUUGGGAAAGUAUUAUGUUACGCCGUUCGGAUCUGCACUUCCAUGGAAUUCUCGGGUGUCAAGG` has a log2 enrichment of -0.271.
The log2 enrichment of `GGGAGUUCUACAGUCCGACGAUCCAAGUCCUGUGCUACACAUCGUAUGUACCGAAUCGGAAAGGAAAAAGGUUUUUGGAAAGUAUUAUGUUACGCCGUUCGGAUCUGCACUUCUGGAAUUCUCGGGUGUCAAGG` is reported as -1.23.
The log2 enrichment of `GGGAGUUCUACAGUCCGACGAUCAGUCCUGUGCUACACAUCGUAUGUACCGAAUCGGGGAAAAGGGGAAAAGGAAAAGGGGAAAGUAUUAUGUUACGCCGUUCGGAUCUGCACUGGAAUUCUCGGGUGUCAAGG` is reported as 0.204.
`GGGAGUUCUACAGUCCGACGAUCGCAGUAAGUAAAAACAAAUGGAAAUGCUUCGGAUAGUGGCAGGGGUGGGGGUUGCUAAGGAAAGGGUGGGAUGGGAGUGGGUAAAGAGUUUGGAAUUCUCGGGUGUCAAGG` has a log2 enrichment of 0.518.
`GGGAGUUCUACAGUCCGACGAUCUGGUUAGUCAACUACUUUGGUUCCUUAUCAGUAGAAGACUCCCUAGAAUGUCUCAGAGCCAUGCUGUCUGCCAACAUCCGUCAGAAUCUGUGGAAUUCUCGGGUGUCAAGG` gave a log2 enrichment of -0.345.
`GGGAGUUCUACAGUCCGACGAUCUGGGAGGUGGAUUUUGUCUAUUUUUUUAGCUCAUUUCCAGGGGUGGGAAUUUUUUUUUAAUAUGUGUCAUGAAUAAAGUUGUUUUUGAAAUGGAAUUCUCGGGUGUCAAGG` has a log2 enrichment of -0.362.

Block 3 — technique: RNA Bind-n-Seq; form: RNA; medium: in vitro; tested at: 365 nM; baseline: no-protein control; direction: higher = stronger binding
Target: RNA binding protein fox-1 homolog 2, RRM domain, GST-SBP tag (RBFOX2, Homo sapiens, UniProt O43251-10, residues 100-194)
Notes: natural RNA segment, single round, ends assumed
Target sequence (chain): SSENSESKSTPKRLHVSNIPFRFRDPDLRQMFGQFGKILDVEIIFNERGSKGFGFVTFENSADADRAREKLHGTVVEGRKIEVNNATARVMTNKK
Under “RBNS enrichment (R)”, `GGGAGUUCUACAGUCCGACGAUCCUCAUAAGUAAAUGUCUUCAUGUUGAUGUGUCCGUGAAAGUUGUGAUCUGUUGUAAUAUCAGUUACAGUGGCAGUAUUGACAAUAAGAAACAGUUUAACAGAAAAAUGAAUGGAAUUCUCGGGUGCCAA` is recorded as 0.394.
`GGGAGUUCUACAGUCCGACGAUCAAAUAAUCUAUUCGAAGUCCAAACCAAACACAAAGCCUGUGAUAUUUUAGGUUAUUAAGGUAACUGCUAAUGAAGGAUUUUAAAAAGUGUCCUCAAAAAGGACUUAGCCCUGGAAUUCUCGGGUGCCAA`: “RBNS enrichment (R)” 0.561.
`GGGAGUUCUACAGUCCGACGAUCCUAGAUUUUAGAACUGUAUGUAGAAUUUUCACAGAAUACAUUGUUAAGCUAACACUUUUAACAACGGUUACAAUGUUAAGUGAAGUUCAUGGAUUUAACAACAAAACAGAUGGAAUUCUCGGGUGCCAA`: “RBNS enrichment (R)” 0.265.
`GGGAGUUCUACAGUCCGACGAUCGAAUGUUUUUGGAAAGGUGUUUUUUGGUAUGCAAGUCAGCUUUGCCUCACAGUUGAAAAUGUUCGGUCAUGAUUGCUUUUGAAACCAAAGGGGAAGGUACCGAUAUCAUUUGGAAUUCUCGGGUGCCAA` — result for “RBNS enrichment (R)”: 1.06.
Under “RBNS enrichment (R)”, `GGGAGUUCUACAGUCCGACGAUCCACAGGCAAAACAGCUGAGUCCCCCGUGUGCUGCCCUGCUGCUGCCCCUCAGCCCAGCAGCCUGGGCUCCCAGUGCUGAGGCCCUCUGUUCAGGCCUCCGCCCACCCUGAUGGAAUUCUCGGGUGCCAA` is recorded as 0.336.
Under “RBNS enrichment (R)”, `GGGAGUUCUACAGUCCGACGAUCCAUUGAUGUCUAAGAGGGGCCGUGGUAAUAGAUUGCAUCUGCCCUGUGCAUGCGCAUGUUUAACCACAGGCCAGAGAACUCAAUUCUGAUGUCGUAAGUUCUCUGUAAGUUGGAAUUCUCGGGUGCCAA` is recorded as 0.817.
Under “RBNS enrichment (R)”, `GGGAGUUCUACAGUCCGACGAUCUUUAAAUGUUAACCAUUUGCAGAUUGCAUUAGCAUGUCUCUGCCUCUCUACCCUGAAAUGGGUGAAGGAGUCUUGUUCAGUUGUUUUAUAAGAGGUGCUCACAGAAAGAAUGGAAUUCUCGGGUGCCAA` is recorded as 4.34.
`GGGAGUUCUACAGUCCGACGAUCAAAUAUUUUAUUUGAUAAAGAUAGUUGAUGGUUUAUUUUAAAAGAUGCACUUUGAGUUGCAAUAUGUUAUUUUUAUAUGGGCCAAAACUACAAAAAAAAAAAAGAGGAAAUGGAAUUCUCGGGUGCCAA`: “RBNS enrichment (R)” 0.661.

Block 4 — technique: competition protein-binding microarray; form: double-stranded DNA, one strand shown; medium: in vitro; tested at: 2 µM; together with: Pho4 competitor, 0.05 µM; direction: higher = stronger binding
Target: Centromere-binding protein 1, full length, His-tagged (CBF1, Saccharomyces cerevisiae, UniProt P17106, residues 1-351)
Sequence of UniProt P17106 (whole entry, looked up): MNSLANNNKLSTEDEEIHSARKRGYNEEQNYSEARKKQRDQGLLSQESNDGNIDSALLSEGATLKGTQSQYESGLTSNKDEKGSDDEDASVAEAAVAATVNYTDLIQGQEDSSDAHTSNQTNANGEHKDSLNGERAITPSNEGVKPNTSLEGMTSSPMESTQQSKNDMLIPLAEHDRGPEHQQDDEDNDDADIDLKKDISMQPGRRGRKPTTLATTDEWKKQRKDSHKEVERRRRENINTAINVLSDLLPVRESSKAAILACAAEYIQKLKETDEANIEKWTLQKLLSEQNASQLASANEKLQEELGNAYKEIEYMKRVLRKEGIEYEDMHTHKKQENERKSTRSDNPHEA
Notes: whole 60-bp probe, lowest competitor level
For `GAGACCACATATTCACACGTGATGGATAGTCCCGTTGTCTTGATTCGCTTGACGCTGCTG`, the fluorescence intensity was 2820 a.u.
`AGCACCCTGGTATTTCTCGTGATGGTCTGCCCTTCAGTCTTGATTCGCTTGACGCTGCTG` has a fluorescence intensity of 96.6 a.u.
The fluorescence intensity of `GACAAGGACATTTTGCACGTTGACATTCCGGTAACTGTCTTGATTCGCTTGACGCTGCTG` is reported as 115 a.u.
For `CTAACGAAGGTTTGTCACCACACTTACAAGCCAAGTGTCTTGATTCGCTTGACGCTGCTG`, the fluorescence intensity was 89.7 a.u.
`CGTCCTAGTGATTGTCACAATACTTCCATGAGGAAGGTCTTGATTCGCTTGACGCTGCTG` has a fluorescence intensity of 98 a.u.
`TACCACACAGTCATACTCGTGATGGATTATGTGGTAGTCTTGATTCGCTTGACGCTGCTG` has a fluorescence intensity of 250 a.u.
The fluorescence intensity of `GCCAAGATGATTGAAAACATGACAAAGGAGAAAGTCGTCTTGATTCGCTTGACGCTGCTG` is reported as 105 a.u.
With `CTTTCCCGATCTTGAACCGTGGGTGTAGCACATTTGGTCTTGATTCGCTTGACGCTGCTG` the fluorescence intensity was 81.8 a.u.
With `TGGCAATGGCCACTCACCGTGCCAGGCCTGCAAGTCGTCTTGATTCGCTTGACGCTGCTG` the fluorescence intensity was 78.1 a.u.
`CTAACGAAGGTTTGTCACGGGACTTACAAGCCAAGTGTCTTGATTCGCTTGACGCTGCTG` gave a fluorescence intensity of 1360 a.u.
`TGCGCAACAACTTGGGATGTGGGTGTATGTCTAGAAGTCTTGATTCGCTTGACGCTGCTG` gave a fluorescence intensity of 66.4 a.u.
With `CACAACAGAGTTCACCACGTGGTAACCTATTTCTACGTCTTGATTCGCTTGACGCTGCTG` the fluorescence intensity was 1690 a.u.
`AAAGCGGTAATTTGATAGGTGGGTGCAGATATCTATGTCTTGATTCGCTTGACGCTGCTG` has a fluorescence intensity of 68.6 a.u.
`CTTTATAAATCTCCACACGTTCCTGTTGGCGATGATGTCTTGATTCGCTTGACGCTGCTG` gave a fluorescence intensity of 100 a.u.
The fluorescence intensity of `TTTCAAAAATTTCTTAACGTGGGTATTCTTCTTCCTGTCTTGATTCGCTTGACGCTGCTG` is reported as 81.8 a.u.
For `CGTCCTAGTGATTGCCAAGTGGGTGCCATGAGGAAGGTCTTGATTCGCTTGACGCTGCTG`, the fluorescence intensity was 83.6 a.u.
The fluorescence intensity of `CATACCCAACCTTGAAGAGTGGGTGAAGATATTTGTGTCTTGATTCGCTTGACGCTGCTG` is reported as 72.6 a.u.
For `GGCTTGCAACTCCGTCACATGAGGTATGGGGGACATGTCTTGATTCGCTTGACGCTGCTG`, the fluorescence intensity was 250 a.u.
`TGCGCAACAACTTGGTCAGTGGGTGTATGTCTAGAAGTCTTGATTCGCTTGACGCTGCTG` has a fluorescence intensity of 71.6 a.u.

Block 5 — target: CCND1, cyclin fold, Cln2 fusion (human); technique: yeast growth competition, sequencing; medium: yeast; notes: weak parent motif; baseline: not given; direction: higher = stronger binding
Starting sequence: ASZ1 docking peptide (human); GFGFLLFICKLTF; partner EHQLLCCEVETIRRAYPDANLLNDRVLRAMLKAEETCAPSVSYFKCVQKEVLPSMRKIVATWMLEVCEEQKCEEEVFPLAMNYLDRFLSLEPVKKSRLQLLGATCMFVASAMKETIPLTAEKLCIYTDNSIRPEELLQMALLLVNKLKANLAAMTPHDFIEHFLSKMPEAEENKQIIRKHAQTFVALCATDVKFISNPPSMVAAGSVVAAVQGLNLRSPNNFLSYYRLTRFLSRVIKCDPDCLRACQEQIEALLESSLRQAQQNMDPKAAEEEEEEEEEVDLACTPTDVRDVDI
`K10A`: “normalised enrichment score” -0.378.
Under “normalised enrichment score”, `T12A` is recorded as -0.4.
`F7A`: “normalised enrichment score” -0.121.
For `G3A`, “normalised enrichment score” read -0.301.
`F2A` — result for “normalised enrichment score”: -0.252.
`F13A` — result for “normalised enrichment score”: 0.00373.
Under “normalised enrichment score”, `G1A` is recorded as -0.328.

Repeated from above (block 4):
`CTAACGAAGGTTTGTCACGGGACTTACAAGCCAAGTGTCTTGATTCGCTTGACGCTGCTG` gave a fluorescence intensity of 1360 a.u.
`TGCGCAACAACTTGGTCAGTGGGTGTATGTCTAGAAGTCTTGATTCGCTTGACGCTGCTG` has a fluorescence intensity of 71.6 a.u.
`TGCGCAACAACTTGGGATGTGGGTGTATGTCTAGAAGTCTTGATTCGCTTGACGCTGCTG` gave a fluorescence intensity of 66.4 a.u.
The fluorescence intensity of `GACAAGGACATTTTGCACGTTGACATTCCGGTAACTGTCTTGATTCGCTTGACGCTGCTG` is reported as 115 a.u.
`CGTCCTAGTGATTGTCACAATACTTCCATGAGGAAGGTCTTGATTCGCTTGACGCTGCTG` has a fluorescence intensity of 98 a.u.
`AGCACCCTGGTATTTCTCGTGATGGTCTGCCCTTCAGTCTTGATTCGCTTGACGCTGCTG` has a fluorescence intensity of 96.6 a.u.
For `GGCTTGCAACTCCGTCACATGAGGTATGGGGGACATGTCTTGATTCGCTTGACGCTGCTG`, the fluorescence intensity was 250 a.u.
For `CTAACGAAGGTTTGTCACCACACTTACAAGCCAAGTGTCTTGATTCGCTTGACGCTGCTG`, the fluorescence intensity was 89.7 a.u.
